# Measured values of several laboratories.
# Protocols differ between the studies behind these lines.
# Organism: Acinetobacter baumannii
Compound,test,test system,setting,MIC
O=C(O)c1ccc(-n2cc(/C=N/Nc3cccc(Cl)c3F)c(-c3ccc4ccccc4c3)n2)cc1,broth microdilution with resazurin,ATCC 747,,> 50 µg/mL
CN1/C(=C/C=C/c2cc(-c3ccccc3)cc(-c3ccccc3)[o+]2)C(C)(C)c2ccccc21,"microbial growth, broth dilution",BAA1605,,2.5 µg/mL
CC(C)CS[C@H]1[C@H](O)[C@@H](N)[C@@H](O[C@H]2[C@H](O[C@@H]3O[C@H](CO)[C@@H](O[C@H]4O[C@@H](CN)[C@@H](O)[C@H](O)[C@H]4N)[C@H]3O)[C@@H](O)[C@H](N)C[C@@H]2N)O[C@@H]1CO,,reference strain,,8 µg/mL
CC[C@@H](C)[C@@H](NC(=O)[C@@H](C)NC(=O)[C@@H](CCCCN)NC(=O)[C@@H](CC(C)C)NC(=O)[C@@H](CC(C)C)NC(=O)[C@H](NC(=O)[C@@H](CCCCN)NC(=O)[C@@H](CC(C)C)NC(=O)[C@@H](C)NC(=O)[C@@H](CCCCN)NC(=O)[C@@H](CCCCN)NC(=O)[C@@H](CCCCN)NC(=O)[C@@H](C)NC(=O)[C@@H](CCCCN)NC(=O)[C@@H](CO)NC(=O)[C@@H](Cc1ccccc1)NC(=O)[C@H](NC(=O)[C@@H](CCCCN)NC(=O)[C@@H](CC(C)C)NC(=O)[C@@H](Cc1ccccc1)NC(=O)[C@@H](CO)NC(=O)[C@@H](CCCCN)NC(=O)[C@@H](Cc1c[nH]c2ccccc12)NC(=O)[C@@H](CCCCN)NC(C)=O)[C@H](C)O)[C@H](C)O)C(=O)N[C@H](CO)C(=O)N[C@H](CCCCN)C(N)=O,,"899, Mueller-Hinton broth","24 h, 37 °C",0.7 µM
Cc1ccc2ccc3ccc(C)nc3c2n1.Cc1ccc2ccc3ccc(C)nc3c2n1.O.[Cl-].[Cl-].[Cl-].[Yb+3],,,,31 µg/mL
CC[P+](CC)(CC)[Au-][S][C@@H]1O[C@H](COC(C)=O)[C@@H](O[C@@H]2O[C@H](COC(C)=O)[C@H](OC(C)=O)[C@H](OC(C)=O)[C@H]2OC(C)=O)[C@H](OC(C)=O)[C@H]1OC(C)=O,,NCTC 13420,,66 µM
COc1ccc2ccc3c(c2c1)C=[N+]1C2CCCCC2[N+]2=Cc4ccc(F)cc4[O][Au-]21[O]3.F[P-](F)(F)(F)(F)F (stereo not shown),"bacterial growth, broth microdilution",carbapenem-resistant clinical isolate,24 h,20 µM
COc1ccc(-c2nc3ccc(-c4c[nH]c(N)n4)cc3[nH]2)cc1,,ATCC 19606,compound alone,≥ 200 µM
COc1ccc2c(c1)C=[N+]1C3CCCCC3[N+]3=Cc4c(ccc5ccc(OC)cc45)[O][Au-]13[O]2.F[P-](F)(F)(F)(F)F (stereo not shown),"bacterial growth, broth microdilution",carbapenem-resistant clinical isolate,24 h,> 20 µM
c1ccc(CN2CCOCCOCCN(CCCCCCCCCCN3CCOCCOCCN(CCCCCCCCCCN4CCOCCOCCN(Cc5ccccc5)CCOCCOCC4)CCOCCOCC3)CCOCCOCC2)cc1,microbial growth,,,13 µM
